Assay results collected from several papers.
Protocols differ between the studies behind these lines. ± marks the error that the study gave.
Organism: HIV-1

The selectivity index of `COc1ccc(-n2c(SCc3ccncc3)nnc2[C@H](Cc2ccccc2)NC(=O)Cc2c(C)[nH]c3ccccc23)cc1` is reported as 9 (MT-4, wild type; reference: CC50 over EC50).
`CC(=O)N[C@H](CCCNC(=N)N)C(=O)N[C@H](CCCNC(=N)N)C(=O)N[C@H](CCCNC(=N)N)C(=O)N[C@H](CCCNC(=N)N)C(=O)N[C@H](CCCNC(=N)N)C(=O)N[C@H](CCCNC(=N)N)C(=O)N[C@H](CCCNC(=N)N)C(=O)N[C@H](CCCNC(=N)N)C(=O)N[C@H](CCCNC(=N)N)C(N)=O` has an IC50 of roughly 300 nM (viral entry, luciferase reporter; PM1, HXB2 Env pseudotype).
With `COC(=O)c1ccc(CN2CCC(Nc3nc(Oc4c(C)cc(C#N)cc4C)c4ccccc4n3)CC2)cc1` the EC50 was 28.4 ± 8.93 nM (viral replication, luciferase reporter; TZM-bl, NL4-3 wild type).
The selectivity index of `COc1ccc(-n2c(SCCN(C)C)nnc2[C@H](Cc2ccccc2)NC(=O)Cc2c(C)[nH]c3ccccc23)cc1` is reported as 27 (MT-4, wild type; reference: CC50 over EC50).
The selectivity index of `CC(=O)NCCN(CCC(=O)NCCN(CCC(=O)NCCN(CCC(=O)NCCC(N)=O)C(=O)[C@@H](N)Cc1ccccc1)C(=O)[C@@H](N)CCCNC(=N)N)C(=O)[C@@H](N)Cc1ccccc1` is reported as greater than 1.2 (PBMC, LAI; reference: CC50 over EC50).
For `Cc1cc(/C=C/C#N)cc(C)c1Oc1nc(NC2CCN(Cc3ccc(C(N)=O)cc3)CC2)nc2ccccc12`, the EC50 was 6.2 ± 2.44 nM (viral replication, luciferase reporter; TZM-bl, NL4-3 wild type).
`NCCCC[C@H](NC(=O)[C@H](CC(N)=O)NC(=O)[C@H](CCCCNC(=O)[C@H](Cc1ccc(B(O)O)cc1)NC(=O)[C@H](Cc1ccc(O)cc1)NC(=O)[C@@H](N)Cc1ccc(B(O)O)cc1)NC(=O)[C@H](Cc1ccc(B(O)O)cc1)NC(=O)[C@H](Cc1ccc(O)cc1)NC(=O)[C@@H](N)Cc1ccc(B(O)O)cc1)C(=O)N[C@@H](CO)C(=O)N[C@@H](Cc1ccc(O)cc1)C(N)=O` gave an inhibition of roughly 90% (refers to: p24; U87-CD4/CXCR4, NL4-3; 10 µM).
The EC50 of `Cc1cc(C#N)cc(C)c1Oc1nc(NC2CCN(Cc3ccc(S(N)(=O)=O)cc3)CC2)nc2ncccc12` is reported as 2.02 ± 0.53 nM (viral replication, luciferase reporter; TZM-bl, NL4-3 wild type).
The EC90 of `CC(=O)OCC1OC(n2ccc(=O)[nH]c2=O)C2CC=CCC12` (mixture of isomers) is reported as greater than 100000 nM (viral replication; human PBM cells, LAI).
`Cc1cc(Oc2c(C(F)(F)F)ccn(Cc3n[nH]c(=O)n3C)c2=O)c2cccc(Cl)c2n1` has a selectivity index of less than 1 (MT4, wild type; reference: CC50 over EC50).
`CC(=O)NCCN(CC(=O)NCCN(CC(=O)NCCN(CC(=O)NCCC(N)=O)C(=O)C[C@@H](N)Cc1ccccc1)C(=O)C[C@@H](N)Cc1ccccc1)C(=O)C[C@@H](N)CCCNC(=N)N` gave a selectivity index of greater than 12 (PBMC, LAI; reference: CC50 over EC50).
The EC50 of `COc1cc2nc(NC3CCN(Cc4ccc(C(N)=O)cc4)CC3)nc(Oc3c(C)cc(C#N)cc3C)c2cc1OC` is reported as 1.16 ± 0.42 nM (viral replication, luciferase reporter; TZM-bl, NL4-3 wild type).
`Nc1ncnc2c1ncn2C1OC(CO)C2CC=CCC21` (mixture of isomers) gave an EC90 of greater than 100000 nM (viral replication; human PBM cells, LAI).
With `Cc1cc(C#N)cc(C)c1Oc1nc(NC2CCN(Cc3ccc(F)cc3)CC2)nc2ccccc12` the EC50 was 29.3 ± 7.43 nM (viral replication, luciferase reporter; TZM-bl, NL4-3 wild type).
For `CC(=O)OCC1OC(n2cnc3c(Cl)nc(Cl)nc32)C2CC=CCC12` (mixture of isomers), the EC90 was 62400 nM (viral replication; human PBM cells, LAI).
For `C=CCSc1nnc([C@H](Cc2ccccc2)NC(=O)Cc2c(C)[nH]c3ccccc23)n1-c1ccc(OC)cc1`, the selectivity index was 12 (MT-4, wild type; reference: CC50 over EC50).
With `CCN(Cc1cccc(S(=O)(=O)O)c1)c1ccc(C(=C2C=CC(=[N+](CC)Cc3cccc(S(=O)(=O)[O-])c3)C=C2)c2ccccc2)cc1` the IC50 was 12700 nM (cell-cell fusion; H9/HIV-1 IIIB and MT2 cells).
For `C=C(C)C1CCc2c(c(C)cc(O)c(=O)c2O)C1` (stereo not shown), anti-HIV activity read “inactive” (concentration not given).
The EC50 of `Cc1cc(/C=C/C#N)cc(C)c1Oc1nc(NC2CCN(Cc3ccc(S(C)(=O)=O)cc3)CC2)nc2ncccc12` is reported as 1.4 nM (viral replication, MTT; MT-4, IIIB).
The selectivity index of `CC(=O)NCCN(CC(=O)NCCN(CC(=O)NCCN(CC(=O)NCCC(N)=O)C(=O)C[C@@H](N)CCCCN)C(=O)C[C@@H](N)Cc1ccccc1)C(=O)C[C@@H](N)Cc1ccccc1` is reported as greater than 4 (PBMC, LAI; reference: CC50 over EC50).
`CC(=O)N[C@@H](CC(C)C)C(=O)N[C@@H](CS)C(=O)N[C@@H](CC(=O)O)C(=O)N[C@@H](CS)C(=O)N1CCC[C@H]1C(=O)N[C@@H](CC(N)=O)C(=O)NCC(=O)N1CCC[C@H]1C(=O)N[C@@H](Cc1c[nH]c2ccccc12)C(=O)N[C@H](C(=O)N[C@@H](Cc1c[nH]c2ccccc12)C(=O)N[C@H](C(=O)N1CCC[C@H]1C(=O)N[C@@H](C)C(=O)N[C@@H](Cc1ccccc1)C(=O)N[C@@H](CS)C(=O)N[C@@H](CCC(N)=O)C(=O)N[C@@H](C)C(=O)N[C@H](C(=O)NCC(=O)O)C(C)C)C(C)C)C(C)C` gave an IC50 of 2630 nM (viral replication, inhibitor, SEAP reporter; CEMx174 SEAP reporter, NL4-3; 3 days).
`CC(=O)OCC1OC(n2cc(C=CBr)c(=O)[nH]c2=O)C2CC=CCC12` (mixture of isomers) has an EC90 of greater than 100000 nM (viral replication; human PBM cells, LAI).
For `CC(=O)NCCN(CC(=O)NCCN(CC(=O)NCCN(CC(=O)NCCC(N)=O)C(=O)C[C@@H](N)Cc1ccccc1)C(=O)C[C@@H](N)CCCNC(=N)N)C(=O)C[C@@H](N)CCCNC(=N)N`, the selectivity index was greater than 10.5 (PBMC, LAI; reference: CC50 over EC50).
`COc1ccc(-n2c(SCCN3CCOCC3)nnc2[C@H](Cc2ccccc2)NC(=O)Cc2c(C)[nH]c3ccccc23)cc1` gave a selectivity index of 103 (MT-4, wild type; reference: CC50 over EC50).
The EC50 of `Cc1cc(C#N)cc(C)c1Oc1nc(NC2CCN(Cc3ccc(Cl)cc3)CC2)nc2ccccc12` is reported as 29 ± 7.8 nM (viral replication, luciferase reporter; TZM-bl, NL4-3 wild type).
